# Results gathered from unrelated publications.
# Lines come from different studies, so protocols differ. ± gives the spread as reported.
Compound,assay,system,setting,how to read,quantity,result
O=C(Nc1cnccc1Cl)N1CCN(Cc2ccc3c(c2)OC(F)(F)O3)CC1,multiple ascending dose,young men,"25 mg, treatment-emergent adverse events",,hepatic enzyme increased,0%
NC(=O)N1c2ccccc2C=Cc2ccccc21,refers to: infections and infestations (SOC),human male,"oral, dose not given, CTCAE on-treatment AEs",,adverse events incidence,0%
C[C@@H]1CN(CC(=O)N2CC(C)(C)c3ncc(Cc4ccc(F)cc4)cc32)[C@@H](CN2CCOC[C@H]2C)CN1,,human liver microsomes,1 µM,,intrinsic clearance,130 ± 25 µL/min/mg
CCc1nc(C(N)=O)c(Nc2ccc(N3CCC(N4CCN(C)CC4)CC3)c(OC)c2)nc1NC1CCOCC1,,"Japanese patients, plasma","oral, 200 mg, cycle 1 day 28, multiple doses, mean",,Cmax,1020 ng/mL
C[C@@H]1OC(=O)[C@H](Cc2ccccc2)[C@H]1O,soil adsorption,tested soils,geometric mean,,KFoc,86 mL/g
O=C(O)c1ccccc1O,,"humans, both sexes, plasma","oral, 650 mg aspirin, with alcohol, geometric mean",,AUC(0-2 h),13 µg·h/mL
Nc1ncnc2c1ncn2[C@H]1C[C@@H]2OP(=O)(O)OC[C@H]3O[C@@H](n4cnc5c(N)ncnc54)C[C@@H]3OP(=O)(O)OC[C@H]2O1,,"non-tumor-bearing mice, serum","intravenous, 1 mg/kg, toxicity study",,AST/ALT ratio,3.09 ± 0.42
Cc1cn(C(=O)c2c(-c3c(Cl)cc(Cl)cc3Cl)noc2C(C)(C)F)c2cccc(/C=C/C(=O)O)c12,,human patients,"500 mg bid, cycle 8 day 1",,AUC(0-8h),195 µg·h/mL
Cc1cc(C)c(CNC(=O)c2cc(Cl)c3c(c2C)O[C@@](C)([C@H]2CC[C@H](N(C)C)CC2)O3)c(=O)[nH]1,"CTCAE v4.0, refers to: neutrophil count decreased",human relapsed/refractory NHL,"oral, 200 mg once daily, onset after cycle 1 day 1, overall treatment period",,patients with TEAE,25%
COc1cc2nccc(Oc3ccc(NC(=O)c4cc5c(n(-c6ccccc6)c4=O)CCCC5=O)nc3)c2cc1OC,,relapsed or refractory AML,"oral, 10 mg once daily",,grade ≥3 Fatigue patients,0%
CN[C@H](CC(C)C)C(=O)N[C@H]1C(=O)N[C@@H](CC(N)=O)C(=O)N[C@H]2C(=O)N[C@H]3C(=O)N[C@H](C(=O)N[C@H](C(=O)O)c4cc(O)cc(O)c4-c4cc3ccc4O)[C@H](O)c3ccc(c(Cl)c3)Oc3cc2cc(c3O[C@@H]2O[C@H](CO)[C@@H](O)[C@H](O)[C@H]2O[C@H]2C[C@](C)(N)[C@H](O)[C@H](C)O2)Oc2ccc(cc2Cl)[C@H]1O,,"guinea pig, serum","intraperitoneal, 15 mg/kg single, 12 h",,Cmin,2160 ng/mL
O=C(Nc1ccc(Cl)cc1)Nc1ccc(Cl)c(Cl)c1,,whole cow milk,200 nM nominal,,dose fraction in skim milk,10.5%
O=C(Nc1ccc([C@H]2[C@@H](F)[C@@H](F)C[C@@H](F)[C@H]2F)cc1)c1cn[nH]c1,,cryopreserved mouse hepatocytes,1 µM,,hepatic clearance,21 mL/min/kg
NC1(C(=O)N[C@@H](CCO)c2ccc(Cl)cc2)CCN(c2nc[nH]c3nccc2-3)CC1,,metastatic CRPC patients,"480 mg b.i.d., grade 3 to 4, treatment-related, with: enzalutamide 160 mg daily",,incidence of Dysuria,0%
O=C(CC1CCOCC1)Nc1ccc(C2CCCCC2)cc1,,dog liver microsomes,1 µM,,hepatic clearance,23 mL/min/kg
CN(C)N=Nc1[nH]cnc1C(N)=O,,"human patients, plasma","intravenous, 1000 mg/m^2 over 1 h, cycle 2 day 1, co-administered with another drug",,AUC(0-8h),130 µg·h/mL
O=C(Cn1ccnc1)Nc1ccc([C@H]2[C@@H](F)[C@@H](F)C[C@@H](F)[C@H]2F)cc1,,mouse liver microsomes,1 µM,,hepatic clearance,15 mL/min/kg
Cl.[2H]C([2H])([2H])CC(=O)c1cnc(NC(=O)C2CC2)cc1Nc1cccc(-c2ncn(C([2H])([2H])[2H])n2)c1OC,median,human,"oral, 5 mg single dose, fasted, liquid",,Tmax,45 min
CC[C@@H]1CN(C(=O)NCC(F)(F)F)C[C@@H]1c1cnc2cnc3[nH]ccc3n12,,"healthy subjects, plasma","oral, extended-release formulation, population PK model",relative to: ER over IR formulation,relative bioavailability,74.2%
C/C(=N\c1ccc(O)cc1)c1cc2ccccc2n1C,ultrafiltration,rat plasma,"1000 ng/mL, 1 h, 37 °C",,fu,0.014
CCN1/C(=C/C(C)=O)Sc2ccc(F)cc21,,cynomolgus monkey,"oral, 30 mg/kg, 0.5 h post-dose",,diastolic blood pressure,75 ± 5 mmHg
CN(C)CCC(=O)Nc1ccc([C@H]2[C@@H](F)[C@@H](F)C[C@@H](F)[C@H]2F)cc1,liver microsome stability,human liver microsomes,"1 µM, without NADPH",,hepatic clearance,3.9 mL/min/kg
CNC(=O)c1ccc(-c2cnc3ncc(Cc4ccc5ncccc5c4)n3n2)cc1F,,healthy human subjects,"oral, 400 mg, Diarrhea, grade 3, all causality, with: rifampicin 600 mg/day",,subjects with adverse event,0%
NC[C@@]1(CC(=O)O)[C@@H]2CC[C@H]3C[C@@H]2[C@@H]1C3,,"humans with severe renal impairment, plasma",dose not given,relative to: normal renal function,unbound AUC(0-inf) increase,273%
CCCOc1ccc(NC(=O)CN2CCN(C)CC2)cc1-c1nc(CC)c(CC)c(=O)[nH]1,,healthy Chinese men,"10 mg, supine or semi-supine, with: placebo",relative to: baseline,maximal decrease in systolic BP,-9 ± 6.56 mmHg
Cn1cc(-c2cn3nccc3c(-c3cnn([C@]4(CC#N)C[C@@H](C#N)C4)c3)n2)cn1,,healthy human fed,"dose not given, day 10, once daily dosing",,Vz/F,2940 L
Cc1ccc([C@@H]2O[C@H](CO)[C@@H](O)[C@H](O)[C@H]2O)cc1Cc1ccc(-c2ccc(F)cc2)s1,,Japanese type 2 diabetes patients,"400 mg, day 4, 24 h urine collection",relative to: baseline,urinary calcium excretion change,-23.2 mg
CC(C)C[C@@H]1NC(=O)[C@H](C)NC(=O)[C@H](Cc2ccccc2)N(C)Cc2ccc([nH]2)CNC1=O,PAMPA,2% lecithin in dodecane,"100 µM, 17 h, pH 6.4, 37 °C",,-log Pe,5.11 + 0.09
C#C[C@]1(CO)O[C@@H](n2cnc3c(N)nc(F)nc32)C[C@@H]1O,,"human, plasma","oral, 200 mg single dose, extrapolated beyond 96 h",,AUC(0-168 h),23.5 µM·h
CN(C(=O)n1cnc(-c2ccc[n+]([O-])c2)c1)[C@H]1CC[C@H](O)CC1,,"Wistar rat, medulla oblongata","oral, 10 mg/kg of BIA 10-2474, 4 h, single dose",,concentration,13.7 ± 0.5 ng/g
C[C@@H](N)C1CCN(S(=O)(=O)c2cccc3cnccc23)CC1,,healthy volunteers,"150 mg, fasted",,participants with hypotension,0%
CC(C)Cn1cnc2c(N)nc3ccccc3c21,,"C57BL/6J mice, male, beta-naphthoflavone-treated, liver microsomes","1 µM, 30 min",,remaining compound,3.5%
CN(C(=O)C(C)(C)c1cc(C(F)(F)F)cc(C(F)(F)F)c1)c1cnc(N2C[C@H]3COCCN3C[C@H]2CO)cc1-c1ccc(F)cc1[14CH3],,pooled human liver microsomes,"pH 7.4, substrate depletion",,pathway contribution to clearance,100%
OC[C@H]1O[C@@H](c2ccc(F)c(Cc3cc4ccccc4s3)c2)[C@H](O)[C@@H](O)[C@@H]1O,,Japanese type 1 diabetes patients,"oral, 100 mg/day, day 2",,hypoglycaemia adverse events,6 % patients
c1ncc(-c2ccc(C3CCCCC3)cc2)cn1,liver microsome stability,dog liver microsomes,1 µM,,hepatic clearance,29 mL/min/kg
CCN1CCN(Cc2ccc(NC(=O)c3ccc(C)c(NC(=O)c4cncc(-c5cccs5)c4)c3)cc2C(F)(F)F)CC1,LC-MS/MS,"C57BL/6 mouse, plasma","intraperitoneal, 10 mg/kg single dose, 2 h",,mean plasma concentration,186 ng/mL
CCC(C)n1ncn(-c2ccc(N3CCN(c4ccc(OCC5COC(Cn6cncn6)(c6ccc(Cl)cc6Cl)O5)cc4)CC3)cc2)c1=O (stereo not shown),,"human, plasma","oral, dose not given, day 11 predose, geometric mean",,trough plasma concentration,29.9 ng/mL
O=C(OC(C(F)(F)F)C(F)(F)F)N1CCN(Cc2cccc(Oc3ccccc3)c2)CC1,PET blocking study,"rhesus monkey, brain CB","0.03 mg/kg, compound pretreatment, with: [18F]T-401 tracer",,k2,0.071 min⁻¹
O=C(COCC(F)F)Nc1ccc(C2CCCCC2)cc1,liver microsome stability,cynomolgus liver microsomes,1 µM,,hepatic clearance,35 mL/min/kg
CCOc1c([C@H](C)n2nc(C)c3c(N)ncnc32)cc(Cl)c(F)c1[C@@H]1CNC(=O)C1,,"patients with B-cell malignancies, plasma","oral, 30 mg once daily, cycle 1 day 15, monotherapy",,Cmin,287 nM
C=CC(=O)Nc1cc(Nc2nccc(-c3cn(C)c4ccccc34)n2)c(OC)cc1N(C)CCN(C)C,storage stability,human plasma,"5 h, on ice, low QC level",,recovery,95.6%
CCn1ncc2c1-c1cnc(N)c(c1)O[C@H](C)c1cc(F)ccc1-c1nn(C)nc1C2,,"female BALB/c nude mice, PDX","oral, 0.04 mg/kg once daily for 1 days, 12 h",,unbound plasma trough concentration,0.7 ± 0.3 nM
CSCC[C@H](N)C(=O)N[C@@H](CC(C)C)C(=O)N[C@@H](CCCNC(=N)N)C(=O)N[C@@H](Cc1c[nH]c2ccccc12)C(=O)N[C@@H](CO)C(=O)N[C@@H](CCCNC(=N)N)C(=O)N[C@@H](CCCCN)C(=O)N[C@@H](CC(C)C)C(=O)N1CCC[C@H]1C(=O)N[C@@H](CS)C(=O)N[C@H](C(=O)N[C@@H](CO)C(N)=O)C(C)C,"12G5 competition, SUP-T1 cells",human plasma,"20 µM, 2 h, 37 °C",,remaining activity,8 ± 2%
O=C(Nc1nc2cccc(-c3ccc(CN4CCS(=O)(=O)CC4)cc3)n2n1)C1CC1,refers to: dysgeusia,human rheumatoid arthritis patients,"oral, 30 mg once daily, 4 weeks, regardless of relatedness",,treatment-emergent adverse events,0%
O=C(NCc1cc[nH]n1)c1ccc(C2CCCCC2)cc1,liver microsome stability,rat liver microsomes,1 µM,,hepatic clearance,49 mL/min/kg
Cc1ccc(CCC(=O)Nc2nnc(S(N)(=O)=O)s2)cc1,,"BALB/c mouse, male, plasma","oral, 20 mg/kg, 0.167 h",,unbound plasma concentration,5.91 ng/mL
COc1ccc2c(c1)CN(C(=O)CCN1CCC(Cc3ccccc3)CC1)CC[S@@+]2[O-],telemetry,conscious dog,"intravenous, 2 mg/kg, 1 h",,heart rate,95 ± 19 beats/min
O=C(COc1ccc(Cl)cc1)NC12CC(c3nnc([C@H]4C[C@@H](OC(F)(F)F)C4)o3)(C1)C2,refers to: Headache,human,"100 mg once daily, 28 (unit not given)",,adverse event incidence,30%
C=CC(=O)NC1CCN(c2ncc3ncnc(Nc4ccc(Oc5ccc6c(c5)ncn6C)c(C)c4)c3n2)CC1,,"healthy male volunteers, urine","oral, 60 mg, 336 h post-dose, geometric mean",,dose excreted unchanged,0.139%
O=C(O)CCC(=O)O.[2H]C([2H])([2H])Oc1cc(C)c2[nH]ccc2c1CN1CC[C@@H](C2CC2)C[C@H]1c1ccc(C(=O)O)cc1,,healthy Chinese subjects,"100 mg, single ascending dose",,TEAE decreased fibrinogen,0%
CC(C)(C(=O)N1CCOc2c(C#N)cncc2C1)C(F)F,refers to: musculoskeletal disorders,"healthy humans, both sexes","oral, 30 mg single dose",,share of subjects with TEAE,0%
CN(Cc1cccnc1)C(=O)c1ccc(C2CCCCC2)cc1,liver microsome stability,rat liver microsomes,1 µM,,hepatic clearance,52 mL/min/kg
COc1ccnc(C(N)=O)c1O,soil adsorption,soil,"pH 6.9, organic carbon 0.8 %",,KFoc,1780 mL/g
C[C@H]1CN(C(=O)CC#N)[C@]12CCN(c1ncnc3[nH]ccc13)C2,,human,"oral, 12 mg single dose",,participants withdrawn due to AEs,0%
CNCc1ccc(-c2[nH]c3cc(F)cc4c3c2CCNC4=O)cc1,refers to: headache,human patients,"oral, 600 mg twice daily, grade 2",,patients with adverse event,0%
O=[N+]([O-])c1ccc(-c2ccc(O)cc2)c2cccnc12,,"ICR mice male, plasma","intravenous, 1 mg/kg",,Vdss,0.8 L/kg
N#Cc1ccc2c(c1)[C@H]1CCCN(C(=O)c3ccc4[nH]cnc4c3)[C@H]1C2,,human,"160 mg, day 15",,maximum ACTH level,12.6 pmol/L
O=C(CCC(C(=O)[O-])N1CCN(C(CCC(=O)NCC(O)CO)C(=O)[O-])Cc2cccc(n2)CN(C(CCC(=O)NCC(O)CO)C(=O)[O-])CC1)NCC(O)CO.[Gd+3] (stereo not shown),ICP-MS,"rat, femur diaphysis","intravenous, 0.6 mmol Gd/kg, 1 week",,Gd concentration,2.7 nmol/g
